Assay results from different studies.
Each line is one published result; not all experiments were run side by side.
ST14: Suppressor of tumorigenicity 14 protein (ST14, Homo sapiens, UniProt Q9Y5Y6)
Chain of UniProt Q9Y5Y6 (whole entry, looked up): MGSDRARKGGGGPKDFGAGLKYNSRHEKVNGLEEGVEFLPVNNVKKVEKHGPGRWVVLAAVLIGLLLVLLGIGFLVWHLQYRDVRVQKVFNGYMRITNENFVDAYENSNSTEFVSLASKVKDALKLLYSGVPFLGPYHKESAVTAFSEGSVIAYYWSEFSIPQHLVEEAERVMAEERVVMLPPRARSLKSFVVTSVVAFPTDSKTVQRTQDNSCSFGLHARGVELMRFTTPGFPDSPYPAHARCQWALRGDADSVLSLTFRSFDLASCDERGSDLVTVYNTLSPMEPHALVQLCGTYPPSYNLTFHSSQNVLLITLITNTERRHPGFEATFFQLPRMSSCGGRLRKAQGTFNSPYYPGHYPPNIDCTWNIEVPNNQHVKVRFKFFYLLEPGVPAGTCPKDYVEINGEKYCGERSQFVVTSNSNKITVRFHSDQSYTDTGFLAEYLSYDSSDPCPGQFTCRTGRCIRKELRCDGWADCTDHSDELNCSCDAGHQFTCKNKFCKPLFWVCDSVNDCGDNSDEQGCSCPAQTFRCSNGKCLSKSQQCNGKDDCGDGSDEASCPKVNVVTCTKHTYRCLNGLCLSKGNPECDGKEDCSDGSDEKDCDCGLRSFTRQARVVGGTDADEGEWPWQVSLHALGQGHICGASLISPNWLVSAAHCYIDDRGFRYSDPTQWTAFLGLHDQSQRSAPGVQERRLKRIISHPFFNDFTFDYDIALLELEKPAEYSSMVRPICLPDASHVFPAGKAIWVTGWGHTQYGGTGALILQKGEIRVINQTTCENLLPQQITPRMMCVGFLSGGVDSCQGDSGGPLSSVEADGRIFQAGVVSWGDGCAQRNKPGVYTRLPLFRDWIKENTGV
CTSL: Procathepsin L (CTSL, Homo sapiens, UniProt P07711)
Chain of UniProt P07711 (whole entry, looked up): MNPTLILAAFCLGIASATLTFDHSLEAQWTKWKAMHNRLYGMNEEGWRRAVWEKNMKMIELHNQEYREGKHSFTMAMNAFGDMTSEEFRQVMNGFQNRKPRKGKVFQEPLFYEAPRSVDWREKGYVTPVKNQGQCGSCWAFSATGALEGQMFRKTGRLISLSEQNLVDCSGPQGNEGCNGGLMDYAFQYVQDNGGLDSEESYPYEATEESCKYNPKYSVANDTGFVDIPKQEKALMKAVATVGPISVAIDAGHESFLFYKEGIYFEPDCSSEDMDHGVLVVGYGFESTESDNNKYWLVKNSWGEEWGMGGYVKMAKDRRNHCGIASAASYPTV
MPO: Myeloperoxidase (MPO, Homo sapiens, UniProt P05164)
Chain of UniProt P05164 (whole entry, looked up): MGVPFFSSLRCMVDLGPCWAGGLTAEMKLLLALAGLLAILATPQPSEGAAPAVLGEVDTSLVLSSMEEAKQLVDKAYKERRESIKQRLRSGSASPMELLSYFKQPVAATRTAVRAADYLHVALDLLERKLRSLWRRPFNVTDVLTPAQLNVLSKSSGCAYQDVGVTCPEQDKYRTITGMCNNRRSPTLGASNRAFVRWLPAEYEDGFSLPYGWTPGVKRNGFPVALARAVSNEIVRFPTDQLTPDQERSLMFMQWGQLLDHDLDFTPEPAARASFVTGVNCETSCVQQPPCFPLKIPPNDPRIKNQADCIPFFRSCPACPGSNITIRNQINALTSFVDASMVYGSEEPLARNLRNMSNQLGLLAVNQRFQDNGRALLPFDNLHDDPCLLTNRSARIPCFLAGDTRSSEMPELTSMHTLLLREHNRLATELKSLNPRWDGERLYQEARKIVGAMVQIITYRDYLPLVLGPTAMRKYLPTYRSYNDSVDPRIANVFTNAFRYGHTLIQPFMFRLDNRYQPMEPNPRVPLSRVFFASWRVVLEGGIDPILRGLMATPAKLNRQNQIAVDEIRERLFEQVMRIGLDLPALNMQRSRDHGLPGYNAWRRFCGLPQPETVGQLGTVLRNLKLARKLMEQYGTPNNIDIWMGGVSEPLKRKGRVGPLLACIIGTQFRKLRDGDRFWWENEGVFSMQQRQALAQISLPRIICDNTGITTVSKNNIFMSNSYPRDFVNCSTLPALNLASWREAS
CDK5 with p35: Cyclin-dependent kinase 5, with p35 (CDK5, Homo sapiens, UniProt Q00535)
Chain of UniProt Q00535 (whole entry, looked up): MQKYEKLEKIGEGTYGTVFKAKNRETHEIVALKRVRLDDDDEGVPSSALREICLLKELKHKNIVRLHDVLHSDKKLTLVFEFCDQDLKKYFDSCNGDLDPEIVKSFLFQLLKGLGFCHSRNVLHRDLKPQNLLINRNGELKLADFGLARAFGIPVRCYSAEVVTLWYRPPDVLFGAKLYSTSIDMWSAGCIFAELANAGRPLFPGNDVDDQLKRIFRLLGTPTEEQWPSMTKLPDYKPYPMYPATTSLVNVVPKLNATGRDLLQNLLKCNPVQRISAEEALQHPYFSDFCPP
Chain of UniProt P35462 (whole entry, looked up): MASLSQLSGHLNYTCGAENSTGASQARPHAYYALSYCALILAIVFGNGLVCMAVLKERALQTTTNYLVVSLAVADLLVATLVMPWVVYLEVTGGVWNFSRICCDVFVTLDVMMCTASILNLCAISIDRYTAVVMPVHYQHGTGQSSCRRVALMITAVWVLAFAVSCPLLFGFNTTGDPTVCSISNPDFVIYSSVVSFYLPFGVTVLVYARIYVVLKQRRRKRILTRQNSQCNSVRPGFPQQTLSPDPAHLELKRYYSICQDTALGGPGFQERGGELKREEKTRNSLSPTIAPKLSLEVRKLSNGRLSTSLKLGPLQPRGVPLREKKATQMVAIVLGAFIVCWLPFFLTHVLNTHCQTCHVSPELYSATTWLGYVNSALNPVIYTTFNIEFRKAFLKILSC
Chain of UniProt Q9H4B4 (whole entry, looked up): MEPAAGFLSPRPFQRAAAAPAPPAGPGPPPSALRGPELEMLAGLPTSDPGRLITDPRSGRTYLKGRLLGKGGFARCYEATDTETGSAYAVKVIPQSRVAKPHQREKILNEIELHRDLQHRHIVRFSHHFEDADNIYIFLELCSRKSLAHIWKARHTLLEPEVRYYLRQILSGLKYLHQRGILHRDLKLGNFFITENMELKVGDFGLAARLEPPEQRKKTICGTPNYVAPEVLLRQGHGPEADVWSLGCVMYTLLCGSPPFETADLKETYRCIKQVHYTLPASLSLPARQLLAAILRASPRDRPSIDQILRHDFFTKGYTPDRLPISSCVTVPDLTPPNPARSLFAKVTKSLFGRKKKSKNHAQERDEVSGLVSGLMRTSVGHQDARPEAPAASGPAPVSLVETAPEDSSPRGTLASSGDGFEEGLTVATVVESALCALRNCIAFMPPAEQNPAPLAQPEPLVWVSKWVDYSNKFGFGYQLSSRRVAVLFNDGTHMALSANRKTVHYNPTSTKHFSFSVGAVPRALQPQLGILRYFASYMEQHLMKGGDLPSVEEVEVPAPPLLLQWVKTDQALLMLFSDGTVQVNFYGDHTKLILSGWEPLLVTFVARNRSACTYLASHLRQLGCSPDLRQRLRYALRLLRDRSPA
Chain of UniProt Q9Y6E0 (whole entry, looked up): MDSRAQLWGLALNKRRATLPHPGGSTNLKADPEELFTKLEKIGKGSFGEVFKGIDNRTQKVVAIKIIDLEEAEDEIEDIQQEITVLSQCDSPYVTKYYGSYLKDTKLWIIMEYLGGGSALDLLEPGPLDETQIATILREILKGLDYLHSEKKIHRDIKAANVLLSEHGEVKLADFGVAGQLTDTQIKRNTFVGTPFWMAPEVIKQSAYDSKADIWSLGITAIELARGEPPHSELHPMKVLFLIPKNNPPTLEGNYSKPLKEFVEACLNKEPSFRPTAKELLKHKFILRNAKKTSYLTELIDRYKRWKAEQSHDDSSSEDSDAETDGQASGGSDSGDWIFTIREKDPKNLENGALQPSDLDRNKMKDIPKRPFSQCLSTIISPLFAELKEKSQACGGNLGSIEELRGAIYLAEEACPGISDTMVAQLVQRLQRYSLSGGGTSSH
Chain of UniProt Q9NYA1 (whole entry, looked up): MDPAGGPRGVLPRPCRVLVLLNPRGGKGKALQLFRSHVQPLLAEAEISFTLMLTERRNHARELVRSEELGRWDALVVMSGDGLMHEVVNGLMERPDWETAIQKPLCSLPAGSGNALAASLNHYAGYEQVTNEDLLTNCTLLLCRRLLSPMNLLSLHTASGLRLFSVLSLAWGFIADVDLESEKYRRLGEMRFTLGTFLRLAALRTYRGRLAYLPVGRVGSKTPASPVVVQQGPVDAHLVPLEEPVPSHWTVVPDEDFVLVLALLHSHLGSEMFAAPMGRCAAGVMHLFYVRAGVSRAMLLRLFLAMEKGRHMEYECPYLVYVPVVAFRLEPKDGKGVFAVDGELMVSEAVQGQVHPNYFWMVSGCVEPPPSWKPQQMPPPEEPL
Chain of UniProt Q9BY41 (whole entry, looked up): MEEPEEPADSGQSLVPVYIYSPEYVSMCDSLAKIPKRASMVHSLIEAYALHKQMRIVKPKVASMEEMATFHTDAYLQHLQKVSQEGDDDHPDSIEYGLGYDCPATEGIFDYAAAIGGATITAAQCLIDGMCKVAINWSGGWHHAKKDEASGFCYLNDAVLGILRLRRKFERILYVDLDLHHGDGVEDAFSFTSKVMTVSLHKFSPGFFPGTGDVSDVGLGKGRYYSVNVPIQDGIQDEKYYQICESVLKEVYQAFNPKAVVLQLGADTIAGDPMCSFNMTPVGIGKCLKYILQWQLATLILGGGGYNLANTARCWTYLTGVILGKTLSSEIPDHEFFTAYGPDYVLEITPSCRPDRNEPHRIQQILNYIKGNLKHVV
Chain of UniProt P06239 (whole entry, looked up): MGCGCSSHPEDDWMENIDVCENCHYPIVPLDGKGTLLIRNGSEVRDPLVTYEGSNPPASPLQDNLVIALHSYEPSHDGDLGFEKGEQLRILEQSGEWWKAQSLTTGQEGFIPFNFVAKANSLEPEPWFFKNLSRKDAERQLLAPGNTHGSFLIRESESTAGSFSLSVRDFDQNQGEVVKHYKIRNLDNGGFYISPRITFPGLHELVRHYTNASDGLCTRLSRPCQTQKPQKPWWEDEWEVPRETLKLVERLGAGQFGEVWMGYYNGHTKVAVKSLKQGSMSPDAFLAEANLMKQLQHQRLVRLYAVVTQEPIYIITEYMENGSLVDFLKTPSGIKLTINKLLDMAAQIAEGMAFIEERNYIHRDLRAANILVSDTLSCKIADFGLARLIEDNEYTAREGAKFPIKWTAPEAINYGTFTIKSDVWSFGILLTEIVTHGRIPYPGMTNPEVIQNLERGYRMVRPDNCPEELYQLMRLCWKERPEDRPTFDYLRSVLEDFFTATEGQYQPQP

N=C(N)NCCC[C@H](NC(=O)[C@H](CC12CC3CC(CC(C3)C1)C2)NC(=O)[C@H](Cc1cscn1)NC(=O)CCc1ccccc1)C(=O)c1nc2ccccc2s1 — remaining activity (ST14; enzyme activity, inhibitor; 0.1 µM): 94%
CNc1ncc2c(/C=C/C(=O)N3CCC(OC)CC3)nn(Cc3cccc(C(F)(F)F)c3)c2n1 — remaining activity (PLK3 (Homo sapiens, UniProt Q9H4B4); enzyme activity, inhibitor, radiometric; 1 µM): 104%
O=C1Nc2ccccc2C1=O — remaining activity (CTSL; enzyme activity, inhibitor; 100 µM): 103%
N=C(N)NCCC[C@H](NC(=O)[C@H](Cc1ccccc1)NC(=O)[C@H](Cc1cscn1)NC(=O)CCc1ccccc1)C(=O)c1nc2ccccc2s1 — remaining activity (ST14; enzyme activity, inhibitor; 0.1 µM): 2%
Cc1nn(CC(F)(F)F)cc1Nc1nccc(NCCCNC(=O)C2CCC2)n1 — remaining activity (STK17A (Homo sapiens, UniProt Q9UEE5); enzyme activity, inhibitor, radiometric; 1 µM): 106%
Cc1cccc(N(O)N=Nc2ccc(S(=O)(=O)Nc3nccs3)cc2)c1 — inhibition (ABTS scavenging; 20 µg/mL): 30.5%
CS(=O)(=O)c1ccccc1Nc1nc(Nc2ccnc(CO)c2)ncc1Cl — remaining activity (LCK (Homo sapiens, UniProt P06239); enzyme activity, inhibitor; 1 µM): 18.9%
O=C(NO)c1cccc(OS(=O)(=O)Oc2cccc(-c3ccccc3)c2)c1 — IC50 (HDAC6 (Homo sapiens, UniProt Q9UBN7); enzyme activity, inhibitor, fluorescence): 0.665 µM
O=C(CCc1ccc(O)c(O)c1)NCCCNCCCCNCCCNC(=O)CCc1ccc(O)c(O)c1 — remaining activity (CTSL; enzyme activity, inhibitor; 100 µM): 133%
CCNC(=O)c1c(C)[nH]c(C)c1S(=O)(=O)Nc1ccc(C(F)(F)F)c(Cl)c1 — IC50 (DRD3 (Homo sapiens, UniProt P35462); G protein activation, antagonist, BRET): 15 µM
NC/C(=C\F)COc1cccc(Cn2c(=S)[nH]c(=O)c3[nH]cnc32)c1 — remaining activity (MPO; enzyme activity, inhibitor; 0.156 µM): 72.8%
CC[C@H](C)[C@H](NC(=O)[C@H](CCC(N)=O)NC(=O)[C@@H](NC(=O)[C@H](CCSC)NC(=O)[C@H](CCCCN)NC(=O)[C@H](CO)NC(=O)[C@@H](NC(=O)[C@H](CCSC)NC(=O)[C@H](CC(C)C)NC(=O)[C@H](CC(N)=O)NC(=O)[C@@H](NC(=O)[C@@H](NC(=O)[C@H](CO)NC(=O)[C@H](CC(C)C)NC(=O)[C@H](C)NC(=O)[C@H](CCCNC(=N)N)NC(=O)[C@H](CCC(=O)O)NC(=O)[C@H](Cc1ccc(O)cc1)NC(=O)[C@H](Cc1ccccc1)NC(=O)[C@H](C)NC(=O)[C@H](CC(N)=O)NC(=O)[C@@H](N)CCCCN)[C@@H](C)CC)[C@@H](C)CC)[C@@H](C)O)C(C)C)C(=O)N[C@@H](CC(N)=O)C(=O)N[C@H](C(=O)O)C(C)C — remaining activity (CDK5 with p35; enzyme activity, inhibitor, radiometric; 500 µM, 20 min): 16%
CC(=NNC(=O)c1ccccc1)c1ccc(Nc2nnc(-c3ccc(Cl)cc3)c3ccccc23)cc1 — cell death (MCF7; cell growth or viability, MTT; 0.312 µM): 0.62%
CC[C@H](C)[C@H](NC(=O)[C@H](CCC(N)=O)NC(=O)[C@H](CC(C)C)NC(=O)[C@H](CCSC)NC(=O)[C@H](CCCCN)NC(=O)[C@H](CO)NC(=O)[C@H](CO)NC(=O)[C@H](CCSC)NC(=O)[C@H](CC(C)C)NC(=O)[C@H](CC(N)=O)NC(=O)[C@@H](NC(=O)[C@@H](NC(=O)[C@H](CO)NC(=O)[C@H](CC(C)C)NC(=O)[C@H](CS)NC(=O)[C@H](CCCNC(=N)N)NC(=O)[C@H](CC(=O)O)NC(=O)[C@H](Cc1c[nH]c2ccccc12)NC(=O)[C@H](Cc1ccccc1)NC(=O)[C@H](C)NC(=O)[C@H](CCC(=O)O)NC(=O)[C@@H](N)CCCCN)C(C)C)[C@@H](C)CC)C(=O)N[C@@H](CC(N)=O)C(=O)N[C@@H](C)C(=O)O — remaining activity (CDK5 with p35; enzyme activity, inhibitor, radiometric; 50 µM, 20 min): 90%
C=CC(=O)N1CCC(COCC(=O)N2CCN(c3nc(-c4cnc(N)nc4C(F)F)nc(N4CCOC[C@@H]4C)n3)CC2)CC1 — remaining binding (OXSR1 (Homo sapiens, UniProt O95747); binding, competition with immobilised ligand; 1 µM): 88%
Cc1cc([C@@H](C)Nc2ccccc2C(=O)O)c2nc(N3CCC(F)(F)CC3)c(C#N)c(=O)n2c1 — remaining activity (SPHK1 (Homo sapiens, UniProt Q9NYA1); enzyme activity, inhibitor, ADP detection; 10 µM): 124%
O=CC(O)CO (stereo not drawn) — remaining activity (CTSL; enzyme activity, inhibitor; 100 µM): 127%
Cc1cc(NS(=O)(=O)c2ccc(N=NN(O)c3ccccc3)cc2)no1 — inhibition (ABTS scavenging; 20 µg/mL): 14.8%
O=CC(O)C(O)C(OC1OC(CO)C(OC2OC(CO)C(OC3OC(CO)C(O)C(O)C3O)C(O)C2O)C(O)C1O)C(O)CO (stereo not drawn) — remaining activity (CTSL; enzyme activity, inhibitor; 100 µM): 91.7%
CC(C)OCCn1c(=S)[nH]c(=O)c2[nH]ccc21 — remaining activity (MPO; enzyme activity, inhibitor; 2.5 µM): 17.9%
CC1COC2=C1C(=O)C(=O)c1c2ccc2c1CCCC2(C)C (stereo not drawn) — remaining activity (CTSL; enzyme activity, inhibitor; 100 µM): 11.6%
N=C(N)NCCC[C@H](NC(=O)[C@H](Cc1ccc(OCc2ccccc2)cc1)NC(=O)[C@H](Cc1cscn1)NC(=O)CCc1ccccc1)C(=O)c1nc2ccccc2s1 — remaining activity (ST14; enzyme activity, inhibitor; 0.1 µM): 17%
S=C(Nc1ccccc1)Nc1ccc(Oc2nnc(-c3ccc(Cl)cc3)c3ccccc23)cc1 — cell death (MCF7; cell growth or viability, MTT; 1.25 µM): 43.3%
CC(/C=C/C=C(\C)C(=O)OC1OC(CO)C(O)C(O)C1O)=C\C=C\C=C(C)\C=C\C=C(/C)C(=O)OC1OC(COC2OC(CO)C(O)C(O)C2O)C(O)C(O)C1O (stereo not drawn) — remaining activity (CTSL; enzyme activity, inhibitor; 100 µM): 60.6%
N=C(N)NCCC[C@H](NC(=O)[C@H](CC1CCCCC1)NC(=O)[C@H](Cc1cscn1)NC(=O)CCc1ccccc1)C(=O)c1nc2ccccc2s1 — remaining activity (ST14; enzyme activity, inhibitor; 0.1 µM): 10%
Cc1cc(OS(=O)(=O)Oc2ccc3ccccc3c2)cc(C(=O)NO)c1 — Ki (HDAC8 (Homo sapiens, UniProt Q9BY41); enzyme activity, inhibitor, fluorescence): 3.29 µM
COc1cc(-c2cncc3c2CN(C)Cc2cc(N4CCNCC4)ccc2-3)cc(OC)c1OC — remaining activity (STK24 (Homo sapiens, UniProt Q9Y6E0); enzyme activity, inhibitor; 1 µM): 112%

Repeated from above:
CC(/C=C/C=C(\C)C(=O)OC1OC(CO)C(O)C(O)C1O)=C\C=C\C=C(C)\C=C\C=C(/C)C(=O)OC1OC(COC2OC(CO)C(O)C(O)C2O)C(O)C(O)C1O (stereo not drawn) — remaining activity (CTSL; enzyme activity, inhibitor; 100 µM): 60.6%
CC[C@H](C)[C@H](NC(=O)[C@H](CCC(N)=O)NC(=O)[C@@H](NC(=O)[C@H](CCSC)NC(=O)[C@H](CCCCN)NC(=O)[C@H](CO)NC(=O)[C@@H](NC(=O)[C@H](CCSC)NC(=O)[C@H](CC(C)C)NC(=O)[C@H](CC(N)=O)NC(=O)[C@@H](NC(=O)[C@@H](NC(=O)[C@H](CO)NC(=O)[C@H](CC(C)C)NC(=O)[C@H](C)NC(=O)[C@H](CCCNC(=N)N)NC(=O)[C@H](CCC(=O)O)NC(=O)[C@H](Cc1ccc(O)cc1)NC(=O)[C@H](Cc1ccccc1)NC(=O)[C@H](C)NC(=O)[C@H](CC(N)=O)NC(=O)[C@@H](N)CCCCN)[C@@H](C)CC)[C@@H](C)CC)[C@@H](C)O)C(C)C)C(=O)N[C@@H](CC(N)=O)C(=O)N[C@H](C(=O)O)C(C)C — remaining activity (CDK5 with p35; enzyme activity, inhibitor, radiometric; 500 µM, 20 min): 16%
CC(=NNC(=O)c1ccccc1)c1ccc(Nc2nnc(-c3ccc(Cl)cc3)c3ccccc23)cc1 — cell death (MCF7; cell growth or viability, MTT; 0.312 µM): 0.62%
